Published values collected from several papers.
Parts stem from different laboratories: compare values within a part only.

Study 1
Target: Ras GTPase-activating protein-binding protein 1, C-terminal RGG region (G3BP1, Homo sapiens, UniProt Q13283)
Chain of UniProt Q13283 (whole entry, looked up): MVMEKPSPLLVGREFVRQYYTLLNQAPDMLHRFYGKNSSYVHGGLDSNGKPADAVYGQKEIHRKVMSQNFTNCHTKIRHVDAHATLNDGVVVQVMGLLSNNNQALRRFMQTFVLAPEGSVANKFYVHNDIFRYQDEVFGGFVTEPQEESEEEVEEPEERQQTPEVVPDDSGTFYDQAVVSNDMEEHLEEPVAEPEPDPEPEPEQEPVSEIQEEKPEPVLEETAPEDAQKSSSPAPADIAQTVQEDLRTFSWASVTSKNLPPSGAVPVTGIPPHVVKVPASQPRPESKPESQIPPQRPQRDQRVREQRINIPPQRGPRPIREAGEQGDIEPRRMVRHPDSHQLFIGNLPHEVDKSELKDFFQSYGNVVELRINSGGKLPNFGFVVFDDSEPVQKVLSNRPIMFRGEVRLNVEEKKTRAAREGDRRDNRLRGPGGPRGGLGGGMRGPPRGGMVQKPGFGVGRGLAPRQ
Technique: RNA Bind-n-Seq
Molecule type: RNA
Medium: in vitro
Concentration: 1 µM
Setting: whole 134-nt RNA, ends assumed
With: 150 mM KCl
Reference: input library
Reading: higher = stronger binding
Constant ends, left off below: GGGAGUUCUACAGUCCGACGAUC … UGGAAUUCUCGGGUGUCAAGG
Strand | log2 enrichment
CACAGACAACACGCACCCACACAGACACAGAGGGAAGGGGUUGGGAUGGGAAAAGGGUGCACAGCAGGGCGGGGUAGGACCCCAGCCCCU | -0.228
UGUGCUACACAUCGUAUGUACCGAAUCGGGGUUUUUGGGGAAAAAAAGGGGAAAAAAAGGGGAAAGUAUUAUGUUACGCCGUUCGGAUCU | 0.491
ACCUUCACGGCAUGGUGCAACUCCCACCUGCGGAAGGCAGGCACACAGAUCGAGAACAUUGAUGAGGACUUCCGAGACGGGCUCAAGCUC | -0.178
UCCUGUGCUACACAUCGUAUGUACCGAAUCGGGAAAAAAGGGGAAAAAAGGAAAAAAGGGAAAGUAUUAUGUUACGCCGUUCGGAUCUGC | -1.23
AGUCCUGUGCUACACAUCGUAUGUACCGAAUCGGGGAAAAAAAGGGGUGGGGAGGGGAAAGUAUUAUGUUACGCCGUUCGGAUCUGCACU | 1.94
UGGGAGGUGGAUUUUGUUUAUUUUUUUAGCUCAUUUCCAGGGGUGGGAUUUUUUUUUUAAUAUGUGUCAUGAAUAAAGUUGUUUUUGAAA | 3.18
GUUUGAUGAUCGUGGACGGAGUGAUUACGAUGGCAUUGGCAGCCGUGGUGACAGAAGUGGCUUUGGCAAAUUUGAACGUGGUGGAAACAG | 1.17
CACAGACAACACGCACCCACACAGACACAGAGGGAAGGGGUUGGGAUGGGGACAGGGUGCACAGCAGGGCGGGGUAGGACCCUAGCCCCU | -1.17
UGGGAGGUGGAUUUUGUUUAUUGUUUUAGCUCAUUUCCAGGGGUGGGAAUUUUUUUUUAAUAUGUGUCAUGAAUAAAGUUGUUUUUGAAA | 3.1
CAAGUCCUGUGCUACACAUCGUAUGUACCGAAUCGGGGUUUGGGGUGGGGAGGGGAAAGUAUUAUGUUACGCCGUUCGGAUCUGCACUUC | 2.64
UCCUGUGCUACACAUCGUAUGUACCGAAUCGGGUUUUUUUGGGAAAAAGGGAAAAAGGGAAAGUAUUAUGUUACGCCGUUCGGAUCUGCA | -0.807
AGUCCUGUGCUACACAUCGUAUGUACCGAAUCGGUUUUUGGUUUUUGGUUUUUUUGGAAAGUAUUAUGUUACGCCGUUCGGAUCUGCACU | -1.88
ACCAUGCAGGUGGGCAUCUUUGGGAAGUAAAGCAAGGGGGGGAUAGGGAGGGGGGUAACACUUUGGGAACAGGUGGUCCCAGGUCGUUUC | -0.914
UCCUCAAGUCCUGUGCUACACAUCGUAUGUACCGAAUCGGUGGGUGGUGGGAAAGUAUUAUGUUACGCCGUUCGGAUCUGCACUUCCAGC | -0.218

Study 2
Target: RNA binding protein fox-1 homolog 2, RRM domain, GST-SBP tag (RBFOX2, Homo sapiens, UniProt O43251-10, residues 100-194)
Technique: RNA Bind-n-Seq
Molecule type: RNA
Medium: in vitro
Concentration: 365 nM
Setting: natural RNA segment, single round, ends assumed
Reference: no-protein control
Reading: higher = stronger binding
Constant ends, left off below: GGGAGUUCUACAGUCCGACGAUC … UGGAAUUCUCGGGUGCCAA
Residues (chain): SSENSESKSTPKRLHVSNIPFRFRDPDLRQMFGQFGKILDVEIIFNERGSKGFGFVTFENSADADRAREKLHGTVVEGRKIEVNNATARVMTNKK
Strand | RBNS enrichment (R)
CCACCUGUUUUUCUGUGCUCCAGCUGGGCAGUGGGCUCCCCAUGUAGAGCUGAGCCUCUCCACUUCAGGGUGUGGCAUCAUGGCUCAGAUGUCAUUUUGAGCUAAAACCC | 0.364
UGGAUGGUUGCGUGAGUUUUCGUGUGGCUGAAGAGGCUGCUGCCCUCUUACCUUGCCCUGUUCCCGGUGCCUUCUUGCGAAUGAGCUAGAGUAGUUUAGGGUCCCUGACU | 1.13
CUUCUGAUACACUCUCAUCUUGAUCAUAUUUUAAAUCAAGCGUUUUCCUGUAGCUGUCAAGUGGUCUCCAGCAGUUCACUCCAUCAUGUUGCACAGUACUAAGAGACUCA | 0.37
AUGCAUCAAACUGGAACCCCUACCUCAUAUUUCCUGCUCCAGGAAGGUUGAGGUUGAAAAAAAAGAAAAAGAGUGAAAUAGAGUAUUUUAUUUGUAUUUAAAAUAACUAU | 0.705
GUAGAGUUUGGAAAUAAUUUAUGCAAGUGUUUGGUUCCCAUGUUUACAAUUUUUACAGCUUUCCUAGGAUUUUAAAAUGGAAAUGUCAAUAAAUGCUACGAAUCGGUGUG | 4.03
UGUGAUAGACAAUUUCAGCUAGCCACAUAUUGUAUUAUGAAAUUCAUAAAGAUUUUCAAUCAUUCAAUUUCAUUUAUCAACUGAAAUUUUGUUUAGUAUGUGAAUUUUUU | 0.736
AUAGUUCUAUCAGGAAAACAAAUCACUGUAUUUAUCUCCGCAGGCUAUUUGUUCAGAGAGGCCUUUUGUUUAAAUAUAAAUGUUUAAAUAUAAAUGUUUGUCUGGAUUGG | 0.483
ACUCUAAGCUGGAGCUCUUGGAAGAGCUCUUCGGUUUCUGAGCAUAAUGCUCCCAUCUCCUGAUUUCUCUGAACAGAAAACAAAAGAGAGAAUGAGGGAAAUUGCUAUUU | 0.596
CAGGAAAAAUACUACAAGUAAUUGUGGUGGAAAUGUCUGUGUUCCUUGGGAAUGCUGCGCUCUCUGUAGUUUCCAUCAUUGGUGCAGUUCGAACGAAUGAGUAGAGUUCA | 0.343
AUAUUCCAAACAACCCAGGGUUAGCCUUGGCCUCGAUCCUGGCCUUGGCCUCCCUAGGCUAUAUCUGGGACUGGGGGGAUGACAUGCUCCCACUCUGGCUCCUUGUUCUC | 0.241
CAAGAGAUAAGAUGUCUUUUUUUUACAGAAGUGUAAUAGUCACAGUGCCGCUUAUAGGCUGCACGCACCCCUUGCGGAUGUGCUAUCUGUGGGCAUUUCCUCCUCCUGUG | 0.361
CAUCGCUAUUUUAUAUUAAAAUGUAAUGAUCAGCAUCAUGAACAAUGAGCUCUUAGUGUUUUAUUUAUCUGAAAAAAUGUAAGUAAAAGCAGUGUUAGUGAGAGGUGCAA | 1.7

Study 3
Target: Interferon regulatory factor 7, full length, phosphomimetic (IRF7, Homo sapiens, UniProt Q92985, residues 1-503, S471D/S472D/S475D/S476D/S477D/S483D/S484D/S487D)
Chain of UniProt Q92985 (whole entry, unmodified, looked up): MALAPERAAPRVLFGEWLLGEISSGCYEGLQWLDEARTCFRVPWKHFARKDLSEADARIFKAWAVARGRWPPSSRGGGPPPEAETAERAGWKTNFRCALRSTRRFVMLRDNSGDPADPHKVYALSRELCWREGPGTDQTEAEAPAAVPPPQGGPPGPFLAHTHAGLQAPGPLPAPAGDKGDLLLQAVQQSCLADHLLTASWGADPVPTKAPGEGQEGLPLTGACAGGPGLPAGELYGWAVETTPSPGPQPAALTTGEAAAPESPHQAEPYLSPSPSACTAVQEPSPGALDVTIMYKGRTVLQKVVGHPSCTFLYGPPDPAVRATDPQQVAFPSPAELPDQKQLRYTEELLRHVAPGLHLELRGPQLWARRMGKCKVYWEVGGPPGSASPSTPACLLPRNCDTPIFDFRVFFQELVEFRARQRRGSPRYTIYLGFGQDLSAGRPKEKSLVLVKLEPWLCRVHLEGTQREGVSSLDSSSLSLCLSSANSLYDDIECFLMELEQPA
Technique: protein-binding microarray
Molecule type: double-stranded DNA, one strand shown
Medium: in vitro
Concentration: 2200 nM top
Setting: 60-bp whole probe
With: salmon DNA 0.4 mg/ml
Reference: random background probes
Reading: higher = stronger binding
Constant ends, left off below: GCCTAGCAC … GTCTTGATTCGCTTGACGCTGCTG
Strand | fitted relative affinity [z-score]
GACGGTATCGGGTTTCAGGACGTGCTA | 0.529
GACCGTTTCGACTATCGGGACGTGCTA | 2.57
ATAGGACTGCTTTTCCTTTAGTGCTAG | 1.78
GTAGATATCAGTCTCGATTAGTGCTAG | 0.336
TTAGGAATCCTACTGCTTTAGTGCTAG | 0.16
TGAGGTATCGACTATCGGTTAGTGCTA | 0.0906
TCACACATATAATTTTGTACTGTGCTA | 0.426
TGAGGTCTCGGTTTCGGTTAGTGCTAG | 6.42
GACGGACTGGACCCTGGGGACGTGCTA | -1.13
GACGATTTCGGGACTGGAGGCGTGCTA | 1.25
ATCATTTTCTCTGTTCTAGAGTGCTAG | 2.57
TCTCCTCCCCCTCTGCCACCGTGCTAG | 0.431
GACGAACTGCGTCTCGAGACGTGCTAG | 0.113
GGCGGACTGGGGTTTCGGGACGTGCTA | -0.313
TTAGGTTGCGGTTTCGGTTAGTGCTAG | 6.97
GACGGACTAGGTTTCGGGACGTGCTAG | 1.93
TGGTATTTTTTTGTAATCGAGTGCTAG | 0.688
GACGGACTGGGGTACCGGGACGTGCTA | -1.41

Study 4
Target: RING finger protein unkempt homolog, zinc fingers 1-6, GST-SBP tag (UNK, Homo sapiens, UniProt Q9C0B0, residues 30-357)
Chain of UniProt Q9C0B0 (30-357, looked up): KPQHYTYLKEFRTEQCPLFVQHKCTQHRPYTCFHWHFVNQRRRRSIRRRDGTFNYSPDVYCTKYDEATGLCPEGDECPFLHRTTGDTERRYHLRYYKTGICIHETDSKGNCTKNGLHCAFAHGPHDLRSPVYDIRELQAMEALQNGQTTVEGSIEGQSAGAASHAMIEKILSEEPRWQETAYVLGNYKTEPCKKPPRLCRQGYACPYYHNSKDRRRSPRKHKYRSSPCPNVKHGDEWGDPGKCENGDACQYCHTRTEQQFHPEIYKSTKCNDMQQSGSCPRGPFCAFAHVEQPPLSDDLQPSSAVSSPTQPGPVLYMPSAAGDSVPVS
Technique: RNA Bind-n-Seq
Molecule type: RNA
Medium: in vitro
Concentration: not given
Setting: RNA with constant flanks, human-mouse chimeric sites, ends assumed
Reference: input RNA pool
Reading: higher = stronger binding
Constant ends, left off below: GGGAGUUCUACAGUCCGACGAUC … CAACAGAGGAUUGAGCAUCA
Strand | bound/input enrichment
AAAGCCCAAGUAUUUUGAAAAAACUCGAACAGAUUUAACAAGGGUAGCCAGCUUGGAGUCUAGCAACUUGCCAAUGUGUUUACCAAUCUGGGGGCUUGUUUUUCUUUUCUUCUUUCAAAU | 0.314 ratio
GUAAUGUUUAUUCAUUUCUUAUUUUUAUAUAGCUAGAUAAAUAUUGUUAGUCUUAGACAAUAGCUCACAUUUUUUGAGAAGCAUGCCCUCCCUGUCCAUUUGUCUUAUAACAUGACCCAG | 13.9 ratio
AUCCAGUACUCGAAUCACAAAGAACUAAAGACAGAUAAUACAUUAAACCAACGUGCGCAAGUAGUUCUUCAAGCUGUGACAGCUGUCCAGACAGCAAAUACUCCUCUUAGUGGCACCACA | 0.42 ratio
GUAAUGGACGUUAAUACUGCUCUACAAGAGGUUCUGAAGACCGCCCUCAUCCACGAUGGCCUAGCACGUGGCAUACGCGAAGCUGCCAAAGCCUUAGACAAGCGCCAAGCCCAUCUGUGU | 0.245 ratio
GUGUCCUGCUUUCAACUUAAAUCACUGCAUUUUUACUACUGUUCUGUGAGCAUCAGGACUGUAGCGCUGUGUCACCACAGAUGAGAACAGAAGCAGCCUUUCUGUGGAGGGUGGGAAUGA | 0.203 ratio
CCCCAAUACCAUUUGCAAGAGUUGGAACUGCAUUCUUUUUUUAAAAAACAUGUAUACAUUUUAGGGCUGUAGAUUUAUUUUCCUGGUUUUGUUUUUCAUUGCUGACUUUUGAGCACAGAA | 0.898 ratio
CUUAAUGUUAAUAUUUUUGAAUAAAUGAAGCUAAAAUUUUGCUUUCUGGUACAACACGCAUUAGCGAAAGGUUAAGUUUUGUUUUCCACUGAAGUACUAUUUAACAUCUCAGAAAAAAAC | 0.502 ratio
CUGGCACUGUAUCAGAUAUAUUAAUUUUUUAAUGUAGAUGUAAUUUUAAAAAUGAAUGGCUAGUUUACACGUUUAACUAGGGUUUUACUAUAUAUGUGUACAUAUGUAUAUAUAUAUAUA | 5.28 ratio
GCGGCAGAAUCAUGGAGGACAUAAUGCAGCUCCCCAAAGCGCGCGUCAACGCCAGCAUGCUAGCUCAGUAUAUCGACCGGCCCGUGUGCUUCGUGGGGAAGCUGGAAAAGAUUCAUCCCA | 0.085 ratio
UAAGUUAUUUUGUACAGCUUUGUAAAUUGUAUAGCUUUUUAUAUUGCCAUGUUUAUUUUGUUUGGGUGCUUUAUUAAAUUAAGUACAUAGCUAAGGUAAUGAACAUCUUUUUCAGUAAUU | 1.11 ratio
CACGUGUCUGCAGUACUUGAUGUGGACUACUCUCCCACUGGGAAGGAAUUUGUGUCUGCCAGCUUUGAUAAAUCUAUUCGAAUCUUUCCUGUGGACAAGAGCCGAAGCAGGGAAGUGUAU | 0.268 ratio
